# Assay results pooled from the literature.
# Parts stem from different laboratories: compare values within a part only. Substitutions count along the parent as printed.

# Set 1
# Target: ABI1, truncated, D143A, DHFR fusion (Arabidopsis thaliana)
# Method: DHFR PCA, deep sequencing
# Sample: yeast
# Notes: methotrexate growth selection, single substitutions
# Together with: (+)-ABA 0.11 µM
# Baseline: wild-type fitted maximum
# Reading: higher = stronger binding
# Starting sequence: PYL1, truncated, DHFR fusion (Arabidopsis thaliana); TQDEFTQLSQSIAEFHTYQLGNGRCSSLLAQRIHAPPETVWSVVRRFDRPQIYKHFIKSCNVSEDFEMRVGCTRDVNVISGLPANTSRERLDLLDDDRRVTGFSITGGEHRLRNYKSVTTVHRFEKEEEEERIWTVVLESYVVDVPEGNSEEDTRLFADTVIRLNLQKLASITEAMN
Variant,relative binding score [%]
I105E,-9.65
R88H,58.9
E151T,27.6
D96W,-7
N114Y,3.91
E129G,63.3
Y115Q,-8.37
A170Y,-34.8
E130I,15.1
E4P,12.2
F47P,-3.68
E125P,33.6
Q31N,4.86
K126S,68.5
A158Y,22.2
V78I,56
R113C,13.8
P36T,18.4
V142G,1.81

# Set 2
# Target: NFE2, bZIP domain (human)
# Method: DHFR protein complementation
# Sample: yeast
# Notes: single substitutions, most at no-binding floor
# Baseline: wild-type JUN-FOS pair
# Reading: higher = stronger binding
# Starting sequence: JUN, bZIP domain (human); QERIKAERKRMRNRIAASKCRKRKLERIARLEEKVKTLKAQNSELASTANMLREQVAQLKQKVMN; partner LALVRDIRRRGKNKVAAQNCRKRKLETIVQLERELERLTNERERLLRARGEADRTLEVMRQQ
Variant,binding fitness
E54C,-1.52 natural log
T37H,-1.32 natural log
V35H,-1.46 natural log
A49H,-1.49 natural log
N42R,-1.48 natural log
L45M,-1.29 natural log
A46Y,-1.27 natural log
A29C,-1.47 natural log
L45H,-1.51 natural log
A49Q,-1.48 natural log
L31G,-1.47 natural log
E54D,-1.52 natural log
R30C,-1.4 natural log
A57N,-1.49 natural log
V56F,-1.44 natural log
Q41I,-1.23 natural log
M51R,-1.39 natural log
V35S,-1.49 natural log
I28Y,-1.16 natural log
T37Q,-1.39 natural log

# Set 3
# Target: Histone acetyltransferase KAT6A, winged helix 2, GST fusion (KAT6A, Homo sapiens, UniProt Q92794, residues 85-181)
# Method: protein binding microarray
# Form: double-stranded DNA, one strand shown
# Sample: in vitro
# Tested at: not given
# Notes: 8-mer, flanks averaged, mean of 2 arrays, mostly near background
# Baseline: not given
# Reading: higher = stronger binding
# Residues (chain): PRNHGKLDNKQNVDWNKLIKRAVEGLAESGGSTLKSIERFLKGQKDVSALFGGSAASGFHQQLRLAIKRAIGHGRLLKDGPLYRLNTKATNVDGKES
Sequence,E-score
GACACCCA,-0.0693
AAGGGTCC,0.0233
AAATCATT,-0.00709
AACTTGCT,-0.127
CCAGCATA,-0.00543
CTACCGAA,-0.0445
GAAATAAC,0.0712
AGTTGTAG,-0.0609
CCTGAATC,-0.0266
CGGCTTCC,0.228
ACAAGACT,-0.123
CCTTTATC,-0.0351
ACTTTGGG,-0.056
ACTTCTTG,-0.0752
CCTACCCG,0.194
CTGACTGA,-0.139
ACCGGCCA,0.0663
GCGTTTGA,-0.0899
CTGACCAC,-0.157
CAACGAAA,0.0908
AAGAACAG,0.00907
ATCGAACC,0.0143
GCGCCGGA,0.145
CGTTGATC,0.0583
TCATAGGA,-0.166

# Set 4
# Target: CCNB3, cyclin fold, Cln2 fusion (human)
# Method: yeast growth competition, sequencing
# Sample: yeast
# Notes: weak parent motif
# Baseline: not given
# Reading: higher = stronger binding
# Starting sequence: PKN2 docking peptide (human); VSAVQKLDFSDTM; partner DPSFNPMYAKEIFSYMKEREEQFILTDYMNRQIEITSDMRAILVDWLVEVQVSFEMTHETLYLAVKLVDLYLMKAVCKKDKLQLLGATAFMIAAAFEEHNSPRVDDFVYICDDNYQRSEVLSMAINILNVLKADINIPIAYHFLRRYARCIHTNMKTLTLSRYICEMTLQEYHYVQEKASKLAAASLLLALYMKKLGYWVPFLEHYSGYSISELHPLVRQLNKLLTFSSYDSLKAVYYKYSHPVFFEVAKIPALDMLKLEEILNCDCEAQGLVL
Variant,normalised enrichment score
D11R,0.27
M13G,0.0662
T12C,0.656
M13W,0.446
V1C,0.507
V1K,0.308
A3W,0.613
K6C,0.481
K6G,0.265
S2A,0.391
D8R,0.129
S10D,0.376
K6N,0.611
S10G,0.37
D8V,0.378
F9S,0.521
D11T,0.0234
D11L,0.696
T12F,0.374
L7C,0.149
V1I,-0.366
A3N,-0.183
F9I,0.19
D11V,0.277
A3L,0.0885

# Set 5
# Target: RNA binding protein fox-1 homolog 2, RRM domain, GST-SBP tag (RBFOX2, Homo sapiens, UniProt O43251-10, residues 100-194)
# Method: RNA Bind-n-Seq
# Form: RNA
# Sample: in vitro
# Tested at: 365 nM
# Notes: natural RNA segment, single round, ends assumed
# Baseline: no-protein control
# Reading: higher = stronger binding
# Target sequence (chain): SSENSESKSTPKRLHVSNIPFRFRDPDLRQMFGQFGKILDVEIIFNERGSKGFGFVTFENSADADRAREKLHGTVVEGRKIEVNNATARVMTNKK
Sequence,RBNS enrichment (R)
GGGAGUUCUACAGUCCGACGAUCAAGUCAUUGUGACUAACACUUCAGUUCAUUGGCCCAUGAUCAUUUCAGAUUUUAACAGCUGUUACUGUUAUUGGAGAUCGGAGAGUUGGCCUGUUAGAAAUUAAAAAAUAUGGAAUUCUCGGGUGCCAA,0.298
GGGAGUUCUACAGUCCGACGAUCAAUAACUUCUGUGGGAGCUCAUCCCCCAAUCUUCGGUACUCUGCUUCCACAGUUGGAAAGUGGAACUACUUGUUGUUGAUAUCCCACAGCUAUCAGGUGCUAUGUAACUCUGGAAUUCUCGGGUGCCAA,0.373
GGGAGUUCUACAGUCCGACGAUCAAAUAGGGAUUAAAUGUCUAGGCUUCCAUUUAAAAUUAUAUGAAUGGUUUGGGAUCUUUUUGCACUGAGCAAUUUUAUUUCAGGCUUCCAGCUGUCCCUGUGAGUUAUCCUGGAAUUCUCGGGUGCCAA,1.03
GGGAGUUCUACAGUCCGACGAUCCUGAGGCCAUGAGAACCUGAGGGGCAUCUGCCCAGGACAGGAGCCAUGGCAUAUGACAAAGACCAAUGAGGGACCAGGAAAAAAAGUGAUGUCCCCUUUCCCUGCCACCUUGGAAUUCUCGGGUGCCAA,0.214
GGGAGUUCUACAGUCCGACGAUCUUUUUAUUUUACAAAACAGAGAAACAACAAAAGGCUUGGAACUCCUUCAUUCUACGUGGAAUACUAGAUCCCGUUUGUUAGCCUUCGUGACUCCGUCCUUGUCUCCUGUAUGGAAUUCUCGGGUGCCAA,0.82
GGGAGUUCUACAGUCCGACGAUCGGGAUGGGGUGAAGCCCAGAGUGGGGGGGGGCAAGGUGUUCUCCCUCUGCAAGUGGAAUGUUACCCUGUGGGUGGCUGGGUCCAACAGGGUCCCUCCUGUCCCCCCUCUUUGGAAUUCUCGGGUGCCAA,0.61
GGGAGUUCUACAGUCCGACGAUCAGGCUGUGCCUGCCCUGCCAGUGCAGGGAGCUGUCCCGCACUUGAGCAGUGUCAGAGAUUCUUGCUUUAACUUUGAUUUGCUUUCUCCCAUUCUUGGCCCUGGUCACUAGUGGAAUUCUCGGGUGCCAA,0.399
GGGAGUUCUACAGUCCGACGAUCCAGCACACACACUACCUGCAAUGGCCUGCCCAUUCCCUUCAGCUAUUUGUCCUUUUCUUACUGGCAGGUAGUUGCUCACAUAUUCAUCUCUUGCCAAAUAAGGGCCUGCUUGGAAUUCUCGGGUGCCAA,0.822

# Further values, each from its own experiment
Substance,target,test,test system,conditions,how to read,measurement,result
"PhoQ, residues 284 288 289 292 302 303 SIHMAM","PhoP, residues 12 14 15 18 19 VQGLL (Escherichia coli, UniProt P23836)","Sort-seq, item: YFP reporter",E. coli,"PhoQ-PhoP variant library, together with: 10 µM Mg2+","baseline: high Mg2+ state, higher = stronger signaling",fold induction,12.2

# For quick reference, copied from above (set 2):
Variant,binding fitness
A49H,-1.49 natural log
N42R,-1.48 natural log
L45M,-1.29 natural log
A46Y,-1.27 natural log
A29C,-1.47 natural log
L45H,-1.51 natural log
A49Q,-1.48 natural log
L31G,-1.47 natural log
E54D,-1.52 natural log
R30C,-1.4 natural log
A57N,-1.49 natural log
V56F,-1.44 natural log
Q41I,-1.23 natural log
M51R,-1.39 natural log
